Experimental data gathered from unrelated publications.
Compare with care: the assays were run in different laboratories.

`Nc1ccn([C@@H]2O[C@H](CO)[C@@H](O)C2(F)F)c(=O)n1` gave an AUC(0-tau) of 4140 ng·h/mL (human, plasma; intravenous, 600 mg/m2, cycle 1 day 1, added: lonafarnib 200 mg twice daily).
With `O=c1[nH]c(=O)c(Cc2cccc(C(F)(F)F)c2)c([C@H]2CC[C@H](c3ccccc3)CC2)[nH]1` the AUC(0-tau) was 11700 ng·h/mL (human, plasma; oral, 900 mg once daily, day 14, geometric mean).
For `Cn1cc(-c2cn3nccc3c(-c3cnn([C@]4(CC#N)C[C@@H](C#N)C4)c3)n2)cn1`, the AUC(0-tau) was 15.1 ng·h/mL/mg (healthy Japanese human, fed; oral, 400 mg once daily, day 1, multiple ascending dose, dose-normalised, geometric mean).
With `C[C@@H]1CCC[C@H](n2cnc(-c3cc(Cl)ccc3-n3cc(Cl)nn3)cc2=O)c2cc(ccn2)-c2c(cnn2C(F)F)NC1=O` the AUC(0-tau) was 1360 ng·h/mL (human, fasted; 35 mg twice daily, day 1).
With `CCOc1cc([C@@H](CS(C)(=O)=O)N2C(=O)c3cccc(NC(C)=O)c3C2=O)ccc1OC` the AUC(0-tau) was 4120 ng·h/mL (human, plasma; oral, 30 mg twice daily, steady state, mean, added: methotrexate).
`CC(C)(Sc1ccncc1-c1ccc(C#N)c2ccccc12)C(=O)O` has an AUC(0-tau) of 141 ng·h/mL (human, plasma; oral, dose not given, day 7, geometric mean, added: febuxostat).
With `CNC(=O)c1cc(Oc2ccc(NC(=O)Nc3ccc(Cl)c(C(F)(F)F)c3)cc2)ccn1` the AUC(0-tau) was 85 µM·h (human patients, plasma; oral, dose not given, added: tanespimycin).
`CCCCCCCC(=O)N[C@H](CN1CCCC1)[C@H](O)c1ccc2c(c1)OCCO2` has an AUC(0-tau) of 848 ng·h/mL (human healthy adults, plasma; oral, 84 mg twice daily, mean, added: paroxetine 30 mg daily).
`C=C(C)[C@@H]1CC[C@]2(NCCN3CCS(=O)(=O)CC3)CC[C@]3(C)[C@H](CC[C@@H]4[C@@]5(C)CC=C(C6=CC[C@@](CF)(C(=O)O)CC6)C(C)(C)[C@@H]5CC[C@]43C)[C@@H]12` has an AUC(0-tau) of 6280 ng·h/mL (human; oral, 50 mg once daily, day 14, multiple ascending dose).
For `COCCCCn1c(C(=O)N(CC(C)C)[C@@H]2CNC[C@H](C(=O)N3CCOCC3)C2)nc2ccccc21`, the AUC(0-tau) was 9530 ng·h/mL (non-elderly human, plasma; oral, 160 mg once daily, day 7).
